Published values gathered from unrelated publications.
Parts stem from different laboratories: compare values within a part only.

Study 1 — method: protein binding microarray; molecule type: double-stranded DNA, one strand shown; medium: in vitro; tested at: not given; relative to: not given; direction: higher = stronger binding
Target: Histone acetyltransferase KAT6A, winged helix 1, GST fusion (KAT6A, Homo sapiens, UniProt Q92794, residues 1-85)
Setting: 8-mer, flanks averaged, mean of 2 arrays, mostly near background
Target sequence (chain): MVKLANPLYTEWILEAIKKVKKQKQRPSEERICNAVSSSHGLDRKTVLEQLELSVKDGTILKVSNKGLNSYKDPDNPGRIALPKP
Strand	E-score
AGGGACAG	-0.219
ATAAAAAA	-0.0279
GAACGGGC	0.237
CATTTCCG	0.124
AAGACCGG	0.116
TACATCCA	-0.135
ATGATTTC	-0.229
ATGGTATG	-0.0423
GTTATGGA	-0.185
CGAAAAAA	-0.0969
AATCGCTG	0.109
AACACCGG	0.197
AGAGTTTC	-0.164
TCACCCGA	0.0714

Study 2 — method: EMSA with sequencing; molecule type: double-stranded DNA, one strand shown; medium: in vitro; tested at: 10 and 20 nM; relative to: negative control set to 0; direction: higher = stronger binding
Target: Hepatocyte nuclear factor 3-alpha (Foxa1, Mus musculus, UniProt P35582, residues 1-468, full length assumed)
Setting: whole designed probe, mean of two concentrations, ends assumed
Construct (chain): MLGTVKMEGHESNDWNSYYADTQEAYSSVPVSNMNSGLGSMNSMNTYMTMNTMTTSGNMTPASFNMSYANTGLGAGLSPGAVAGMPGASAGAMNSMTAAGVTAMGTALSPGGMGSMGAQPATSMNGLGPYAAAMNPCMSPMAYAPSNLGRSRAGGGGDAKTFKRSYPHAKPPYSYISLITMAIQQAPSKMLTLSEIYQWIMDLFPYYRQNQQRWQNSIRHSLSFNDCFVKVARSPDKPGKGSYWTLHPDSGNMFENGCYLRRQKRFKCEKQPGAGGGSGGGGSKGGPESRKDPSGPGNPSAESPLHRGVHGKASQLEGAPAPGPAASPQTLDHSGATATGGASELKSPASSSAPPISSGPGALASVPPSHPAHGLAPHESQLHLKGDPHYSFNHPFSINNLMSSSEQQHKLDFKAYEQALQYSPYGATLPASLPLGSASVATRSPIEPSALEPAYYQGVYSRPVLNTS
Strand	normalised bound fraction [ratio]
GTGAGCGGTGCCCATTGATGGGGAACTAAATGCTAAAGCTGAAATGAACAGGGATGGCAGCTGCTCAGGGAACAATGAAGTGAAGTCAATCCTGAATTCCAACTTGAAAATGTTTAAAGTAAACAAGCAGGATCTAGGAGGTCATCTAGGAGGTCATTTTAAGGAAATGATAAGGAAAGACAAAAGGAAAGAAGAGCAAAACAGCTTTAGAAGTTAGTTTTTCACTGGGATCGTGGGGAC	0.399
GTGAGCGGTGCCCATTGATGGGGAACCCCTCATCCTGGGTGTCGGGGTGGGAGGTGTTCTCATCATGAATGGGAGGCGTACCCAGATCCAGCTCTGCCTTTTTTTAACCAAACCAGAGTGTAAACAAATGGCTGGTGACTCACCATTAATCGACATAGCAAGATATGATACATGCCAGGAGAGAAAAAGAAAGTGCTGATGGAAAAATAATCTCATTAGTTTCACTGGGATCGTGGGGAC	0.3
GTGAGCGGTGCCCATTGATGGGGAACTTTACTTCTTATATTTCACTCTGGGTTGACCCTAGGGAACATAAAACCAGATTCTACTGATCTTCCCTTATCAGATGTTTGGTTTTCTCTAAGCAAACATCTATCTGGGGAGCATGACAGGGTCATGACAGATTTCCCAGTGGGGACTGTGGAGACTGGCTGGAAGGCTATGAGTGAGTGAGCTGACATCCACTTTCACTGGGATCGTGGGGAC	0.301
GTGAGCGGTGCCCATTGATGGGGAACATTTGTGTTACTTCCTAATTTGGGCAATTATACAATTGCTGTGAACATCTGAGTATAGGTTTTCATGTAAACAGAATTTTTCTTTCATCTAGGGTAAATACCTAAGTGTGGAGTTGCTGAGTCATATGATAAATGTATGGTTAATAGTATAAGAAGCTGCCAAACTTTTGTGCATAGTGGACAGACCGTTTTATTTCACTGGGATCGTGGGGAC	0.101

Study 3 — method: aptamer microarray, sandwich; molecule type: DNA with 2'F-ANA; medium: in vitro; tested at: 200 nM; with: Cy3 exosite-II aptamer, 400 nM; direction: higher = stronger binding; strand: GGTTGGTGTGGTTGG
Target: Prothrombin, mature alpha-thrombin (F2, Homo sapiens, UniProt P00734)
Setting: whole 15-mer aptamer, many near background
Modification	mean fluorescence intensity
2'F-ANA at 1 2 3 4 5 8 12 13	89.5 a.u.
2'F-ANA at 2 4 5 7 8 10 12 13 14	46 a.u.
2'F-ANA at 1 2 4 9 14	45.2 a.u.
2'F-ANA at 1 3 4 5 11 12 15	87.2 a.u.
2'F-ANA at 5 7 8 12	205 a.u.
2'F-ANA at 1 2 3 5 6 7 8 12 13 14 15	51.2 a.u.
2'F-ANA at 1 2 3 4 5 6 8 11 14	53.1 a.u.
2'F-ANA at 2 6 8 9 11 12 13 15	407 a.u.

Study 4 — method: RNA Bind-n-Seq; molecule type: RNA; medium: in vitro; tested at: not given; relative to: input RNA pool; direction: higher = stronger binding
Target: RING finger protein unkempt homolog, zinc fingers 1-6, GST-SBP tag (UNK, Homo sapiens, UniProt Q9C0B0, residues 30-357)
Chain of UniProt Q9C0B0 (30-357, looked up): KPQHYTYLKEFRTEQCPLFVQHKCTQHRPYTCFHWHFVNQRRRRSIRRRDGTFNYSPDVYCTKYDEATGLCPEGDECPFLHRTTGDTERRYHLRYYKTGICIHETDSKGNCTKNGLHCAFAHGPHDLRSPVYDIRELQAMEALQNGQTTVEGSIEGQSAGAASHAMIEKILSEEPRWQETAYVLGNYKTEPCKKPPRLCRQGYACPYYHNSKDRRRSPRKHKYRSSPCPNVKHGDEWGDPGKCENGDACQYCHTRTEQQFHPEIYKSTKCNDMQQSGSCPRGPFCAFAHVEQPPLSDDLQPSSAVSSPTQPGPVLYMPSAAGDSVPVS
Setting: RNA with constant flanks, human and mouse sites, ends assumed
Shared flanks, not repeated: GGGAGUUCUACAGUCCGACGAUC … CAACAGAGGAUUGAGCAUCA
Strand	bound/input enrichment
UUUCGUUCCAAUUUUUGUGAAUUUAUUGGAGUCCUGAUUCGACAGUGUCAAUAUAGCAUAAUUUAUGAUGAAUAUAUGAUGGACACCGUAAUUUCCCUUUUGACUGGUUUGUCAGACUCC	0.776 ratio
AUCUUGGCCUUUCUGUGGAGGGAGUUAAGAACUAAAAUACCAAAAAUCACUUUAUUUCUUUUAAGACAAUUAUCUGGCCUAAACCCAGAAAGCAGUACUGGAGCAAAAGCCCAGUGUAUA	0.816 ratio
CUCCAGAAAGAAAACAAAAUUAAUGCCUUGCAUCCUGGAAGUUCAUUUAGGAAUCUGAAAUUAGGGACUUCUUUAAAAUUUGGACAUGGCUAAUCGAGGAGCAACAAGACCCAACGGGCC	0.927 ratio
CAGCCUAUGGCCCAGGCCGCCUUGGGUAUUUCUGCUCAAGGUAACCACAUCCCUCUUUAAAAAUUCCGCCGAAAAAGAGAAGACGCUUUACCCGACUCUUUGGGCCGUUAUCUCACGGCG	0.18 ratio
AGUAAAAAGCAAGGUUAUCCAGCACUUCAUGCAUUCAGUACAUUCUUCUAUCCUAAGCUAAAGUCUGGAGGUUACCAAGCAGUGAAAAGAUGGACCAAAGGGGUAAAUCUCUUCGAACAA	0.169 ratio
UGGCGUCUGACUUGUAUGUCACAUUUGUGUAAAAUGGUAUAUUCUUUAAAAUAGUGUUGAUAACUGGAAUAUUGUAUGUAUGCUUGGAGAUGCUUUGUGUGAACCUAAGACUGUCACUCA	1.78 ratio
GACCGCCUGGUAGCCUUUCCUACUAGAGUAGCAGGUGGUGUUGGAAUUACCUGUUGGAUUUUAGUCUGUAACAAAGUUGUCGCUAUUGUGCUUCAUCCGUUCAGCUGAACAGGAGGAUGG	0.71 ratio

Mixed results
Substance	target	assay	test system	conditions	how to read	endpoint	result
PhoQ, residues 284 288 289 292 302 303 TGYLSA	PhoP, residues 12 14 15 18 19 LHATL (Escherichia coli, UniProt P23836)	Sort-seq, refers to: YFP reporter	E. coli	PhoQ-PhoP variant library, with: 10 µM Mg2+	relative to: high Mg2+ state, higher = stronger signaling	fold induction	0.78

For quick reference, copied from above (study 3):
Modification	mean fluorescence intensity
2'F-ANA at 2 4 5 7 8 10 12 13 14	46 a.u.
2'F-ANA at 1 2 4 9 14	45.2 a.u.
2'F-ANA at 1 3 4 5 11 12 15	87.2 a.u.
2'F-ANA at 5 7 8 12	205 a.u.
2'F-ANA at 1 2 3 5 6 7 8 12 13 14 15	51.2 a.u.
